Published values collected from several papers.
Each line is one published result; not all experiments were run side by side. ± marks the error that the study gave.
APP: Amyloid-beta precursor protein (APP, Homo sapiens, UniProt P05067)
APP amyloid-beta: Amyloid-beta precursor protein, amyloid-beta (APP, Homo sapiens, UniProt P05067)
APP Aβ40 fibrils: Amyloid-beta precursor protein, Aβ40 fibrils (APP, Homo sapiens, UniProt P05067)
APP Aβ42 aggregates: Amyloid-beta precursor protein, Aβ42 aggregates (APP, Homo sapiens, UniProt P05067)

The IC50 of `O=C(C=Cc1ccc(O)c(OC(F)(F)F)c1)C1=C(C=Cc2ccc(O)c(OC(F)(F)F)c2)OCC1` is reported as 250 nM (Amyloid-beta precursor protein, amyloid-beta aggregates (APP, Homo sapiens, UniProt P05067); binding, thioflavin T competition).
`COc1cc(O)c(O)c2c1C(=O)CC(c1ccccc1)O2` (stereo not drawn) has an IC50 of 33400 ± 1400 nM (APP).
`CC(C)c1noc(-c2ccc(-n3cnc(C(=O)NCc4ccco4)c3)nc2)n1` has a Ki of greater than 1000 nM (APP amyloid-beta; binding, competition binding; Alzheimer brain homogenate; with: [3H]PiB).
With `COc1cc(-c2nc3ccccc3s2)cc(CN(Cc2ccccn2)Cc2ccccn2)c1O` the Kd was 135 ± 25 nM (APP Aβ40 fibrils; binding to Aβ fibrils, fluorescence titration).
With `COCCOCCOCCOC(=O)C(C#N)=Cc1ccc(C=Cc2ccc(N(C)C)cc2)cc1` the Kd was 1400 nM (APP Aβ42 aggregates; binding, fluorescence titration; with: pre-aggregated Aβ(1-42) 5.0 µM).
For `COc1cc(-c2nc3ccccc3s2)cc(CN2Cc3cccc(n3)CN(Cc3cc(-c4nc5ccccc5s4)cc(OC)c3O)Cc3cccc(n3)C2)c1O`, the Ki was 142 ± 55 nM (APP Aβ40 fibrils; Aβ fibril binding, ThT fluorescence competition; Cu complex of ligand, Aβ 2 µM, with: thioflavin T 1 µM).
`CNc1ccc(-c2nc3ccc(OCCCN4CCN5CCN(CC4)CC(=O)[O][Al]([F])[O]C(=O)C5)cc3s2)cc1` has a Ki of 124 nM (Amyloid-beta precursor protein, fibril (APP, Homo sapiens, UniProt P05067); ligand displacement, radioligand).
The Kd of `COCCOCCOCCOC(=O)C(C#N)=Cc1ccc(N(C)C)cc1` is reported as 2600 nM (APP Aβ42 aggregates; binding, fluorescence titration; with: pre-aggregated Aβ(1-42) 5.0 µM).
`COc1cc(-c2nc3ccccc3s2)cc(CN2CCN(C)CCN(C)CC2)c1O` gave a Ki of 765 ± 30 nM (APP Aβ40 fibrils; Aβ fibril binding, ThT fluorescence competition; Cu complex of ligand, Aβ 2 µM, with: thioflavin T 1 µM).
`N#C/C(=C\c1ccc2cc(N3CCCCC3)ccc2c1)C(=O)OCC(O)CO` (stereo not drawn) has a Kd of 1600 ± 200 nM (APP Aβ42 aggregates; binding, fluorescence titration; 5% DMSO in water, with: aggregated Abeta42 5 µM).
With `CCc1noc(-c2ccc(-n3cnc(C(=O)NCc4cccs4)c3)nc2)n1` the Ki was greater than 1000 nM (APP amyloid-beta; binding, competition binding; Alzheimer brain homogenate; with: [3H]PiB).
For `COc1ccc(-c2cc(=O)c3c(O)cc(O)c(-c4cc(-c5cc(=O)c6c(O)cc(O)cc6o5)ccc4O)c3o2)cc1`, the EC50 was 1450 ± 400 nM (Amyloid-beta precursor protein, Aβ42 fibrils (APP, Homo sapiens, UniProt P05067); amyloid-beta 1-42 disaggregation, thioflavin T fluorescence; 7 h, 37 °C, with: 5 µM thioflavin T).
For `COc1cc(OC)c2c(O)c3c(=O)cc(C)oc3c(-c3c(O)cc4cc5c(c(O)c4c3OC)C(=O)CC(C)(O)O5)c2c1` (stereo not drawn), the IC50 was 8100 nM (APP; amyloid aggregation, inhibitor, fluorescence).
`CCN(CC)c1ccc(C=C(C#N)C(=O)OCCOCCOCCOC)cc1` gave a Kd of 4800 nM (APP Aβ42 aggregates; binding, fluorescence titration; with: pre-aggregated Aβ(1-42) 5.0 µM).
For `OC(Cc1cc(-c2ccc(C(O)C(F)(F)F)s2)sc1-c1ccc(-c2sc(-c3ccc(C(O)C(F)(F)F)s3)cc2CC(O)C(F)(F)F)s1)C(F)(F)F` (stereo not drawn), the Kd was 7580 ± 2470 nM (Amyloid-beta precursor protein, Aβ40 aggregates (APP, Homo sapiens, UniProt P05067); fluorescence; Aβ aggregated 90 min).

Some of these lines once more:
`CC(C)c1noc(-c2ccc(-n3cnc(C(=O)NCc4ccco4)c3)nc2)n1` has a Ki of greater than 1000 nM (APP amyloid-beta; binding, competition binding; Alzheimer brain homogenate; with: [3H]PiB).
`COc1cc(-c2nc3ccccc3s2)cc(CN2CCN(C)CCN(C)CC2)c1O` gave a Ki of 765 ± 30 nM (APP Aβ40 fibrils; Aβ fibril binding, ThT fluorescence competition; Cu complex of ligand, Aβ 2 µM, with: thioflavin T 1 µM).
